Results collected from several papers.
Compare with care: the assays were run in different laboratories.
Chain of UniProt Q12769 (whole entry, looked up): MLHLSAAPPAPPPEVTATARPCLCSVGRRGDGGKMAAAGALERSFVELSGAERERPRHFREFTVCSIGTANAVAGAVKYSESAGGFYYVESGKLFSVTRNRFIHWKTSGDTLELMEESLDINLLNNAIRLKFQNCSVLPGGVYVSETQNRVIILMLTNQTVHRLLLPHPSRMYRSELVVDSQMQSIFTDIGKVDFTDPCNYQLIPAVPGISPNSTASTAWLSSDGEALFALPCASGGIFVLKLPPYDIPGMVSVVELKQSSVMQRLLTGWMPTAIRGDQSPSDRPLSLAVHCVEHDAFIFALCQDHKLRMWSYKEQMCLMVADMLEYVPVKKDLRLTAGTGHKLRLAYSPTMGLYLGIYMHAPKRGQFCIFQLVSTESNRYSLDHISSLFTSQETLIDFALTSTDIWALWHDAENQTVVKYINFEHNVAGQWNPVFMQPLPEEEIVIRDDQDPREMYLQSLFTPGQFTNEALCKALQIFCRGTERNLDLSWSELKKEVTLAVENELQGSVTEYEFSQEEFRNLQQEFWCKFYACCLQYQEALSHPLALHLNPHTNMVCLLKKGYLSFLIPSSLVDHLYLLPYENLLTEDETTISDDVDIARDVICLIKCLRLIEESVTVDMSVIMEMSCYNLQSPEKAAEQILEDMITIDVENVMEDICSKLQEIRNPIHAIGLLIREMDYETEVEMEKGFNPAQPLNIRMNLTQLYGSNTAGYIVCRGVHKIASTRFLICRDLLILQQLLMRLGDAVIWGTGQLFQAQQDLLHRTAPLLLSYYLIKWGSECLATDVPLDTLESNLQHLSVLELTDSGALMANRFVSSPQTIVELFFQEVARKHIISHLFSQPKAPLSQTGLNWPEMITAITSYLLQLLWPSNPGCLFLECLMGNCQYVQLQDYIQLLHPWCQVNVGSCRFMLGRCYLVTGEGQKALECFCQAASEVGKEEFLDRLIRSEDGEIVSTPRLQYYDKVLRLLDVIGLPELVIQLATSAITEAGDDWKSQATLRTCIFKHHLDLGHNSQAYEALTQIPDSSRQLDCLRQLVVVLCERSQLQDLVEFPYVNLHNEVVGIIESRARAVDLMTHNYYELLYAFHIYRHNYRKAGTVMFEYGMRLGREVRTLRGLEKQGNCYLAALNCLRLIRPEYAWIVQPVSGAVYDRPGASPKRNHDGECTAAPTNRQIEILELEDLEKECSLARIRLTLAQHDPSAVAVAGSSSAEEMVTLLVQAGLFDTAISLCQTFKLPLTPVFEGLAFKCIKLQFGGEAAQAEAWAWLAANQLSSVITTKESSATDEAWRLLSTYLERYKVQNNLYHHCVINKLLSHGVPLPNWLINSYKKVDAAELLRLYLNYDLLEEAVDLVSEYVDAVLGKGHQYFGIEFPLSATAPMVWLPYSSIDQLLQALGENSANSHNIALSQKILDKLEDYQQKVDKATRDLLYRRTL

For `CC1(C)SC2C(NC(=O)C(NC(=O)C3=C(O)CN(c4ccccc4)C3=O)c3ccccc3)C(=O)N2C1C(=O)O` (stereo not shown), the MIC was > 200 µg/mL (Escherichia coli; broth microdilution; isolate IU, CTX-M-14, TEM-1; no clavulanic acid).
With `C[C@@H]1[C@H](O)[C@@H](C)/C=C/C=C/C=C/C=C/C=C/C=C/C=C/[C@H](O[C@@H]2O[C@H](C)[C@@H](O)[C@H](N)[C@@H]2O)C[C@@H]2O[C@](O)(C[C@@H](O)C[C@@H](O)[C@H](O)CC[C@@H](O)C[C@@H](O)CC(=O)O[C@H]1C)C[C@H](O)[C@H]2C(=O)O` the MIC was 0.5 µM (Candida albicans; broth microdilution; 56214, RPMI 1640-MOPS; 48 h, 30 °C).
`CC[C@H](C)[C@H](NC(=O)[C@H](CCCCN)NC(=O)[C@@H](NC(=O)[C@H](Cc1ccc(O)cc1)NC(=O)[C@H](CCCCN)NC(=O)[C@H](CCCCN)NC(=O)CNC(=O)[C@H](CCCCN)NC(=O)[C@@H](NC(=O)[C@H](C)NC(=O)[C@H](CC(C)C)NC(=O)[C@H](Cc1c[nH]c2ccccc12)NC(=O)CNC(=O)[C@@H](NC(=O)[C@H](Cc1ccccc1)NC(=O)[C@H](CCCCN)NC(=O)[C@H](CC(C)C)NC(=O)[C@H](Cc1ccccc1)NC(=O)[C@H](C)NC(=O)CNC(=O)[C@@H](N)CCSC)C(C)C)[C@@H](C)O)C(C)C)C(=O)N[C@@H](C)C(=O)N[C@@H](Cc1c[nH]c2ccccc12)C(=O)N[C@@H](CC(=O)O)C(=O)N[C@@H](Cc1c[nH]cn1)C(=O)N[C@@H](CCCCN)C(=O)NCC(=O)N[C@H](C(=O)N[C@H](C(=O)N[C@@H](CCSC)C(=O)N[C@@H](CCCCN)C(=O)N[C@@H](Cc1c[nH]c2ccccc12)C(=O)N[C@@H](CC(C)C)C(=O)N[C@@H](CC(N)=O)C(=O)N[C@@H](C)C(=O)NCC(=O)N[C@@H](CCC(N)=O)C(=O)N[C@H](C(=O)N[C@@H](Cc1ccccc1)C(=O)N[C@H](C(=O)N[C@@H](Cc1c[nH]c2ccccc12)C(=O)N[C@H](C(=O)N[C@@H](Cc1ccc(O)cc1)C(=O)N[C@@H](CCC(=O)O)C(=O)N[C@@H](CCC(N)=O)C(=O)N[C@H](C(=O)N[C@@H](CCCCN)C(=O)N[C@@H](CCCCN)C(=O)N[C@@H](CC(C)C)C(=O)N[C@@H](Cc1c[nH]c2ccccc12)C(=O)N[C@H](C(=O)O)[C@@H](C)O)[C@@H](C)CC)C(C)C)[C@@H](C)O)[C@@H](C)O)[C@@H](C)CC)[C@@H](C)O` has an MIC of 3.9 µg/mL (Streptococcus suis; broth microdilution; CECT 958; 37 °C).
`CC1(C)SC2C(NC(=O)C(NC(=O)C3=C(O)C(Cc4ccc(F)cc4)NC3=O)c3ccccc3)C(=O)N2C1C(=O)O` (stereo not shown) has an MIC of > 200 µg/mL (Escherichia coli; broth microdilution; isolate IU 356 A, KPC-3, VIM-1, TEM; added: clavulanic acid 6 µg/mL).
`CCCCCC/C=C\CCCCCCCCCC(=O)NP(=O)(O)O` has an MIC of > 200 µg/mL (Streptococcus pneumoniae).
`CN[C@H](CC(C)C)C(=O)N[C@H]1C(=O)N[C@@H](CC(N)=O)C(=O)N[C@H]2C(=O)N[C@H]3C(=O)N[C@H](C(=O)N[C@H](C(=O)O)c4cc(O)cc(O)c4-c4cc3ccc4O)[C@H](O)c3ccc(c(Cl)c3)Oc3cc2cc(c3O[C@@H]2O[C@H](CO)[C@@H](O)[C@H](O)[C@H]2O[C@H]2C[C@](C)(N)[C@H](O)[C@H](C)O2)Oc2ccc(cc2Cl)[C@H]1O` has an MIC of 1 µg/mL (Clostridioides difficile; agar dilution anaerobic; ATCC 4381; 48 h).
`CC1(C)S[C@@H]2[C@H](NC(=O)[C@H](N)c3ccccc3)C(=O)N2[C@H]1C(=O)O` has an MIC of > 200 µg/mL (Escherichia coli; broth microdilution; isolate IU 356 A, KPC-3, VIM-1, TEM; added: clavulanic acid 6 µg/mL).
The MIC of `CC(C)C[C@@H]1NC(=O)[C@@H](Cc2ccccc2)NC(=O)[C@H](CCN)NC(=O)[C@@H](NC(=O)[C@H](CCN)NC(=O)[C@@H](N)[C@@H](C)O)CCNC(=O)[C@H]([C@@H](C)O)NC(=O)[C@H](CCN)NC(=O)[C@H](CCN)NC1=O` is reported as > 200 µg/mL (Escherichia coli; checkerboard; BW25113 mcr-1; compound alone).
`NCC(O)C1CCCCCCC1` (stereo not shown) gave an IC50 of 3.16 µM (Plasmodium falciparum; W2).
`O=C(NN=Cc1ccc(O)c(Br)c1)c1cccc(Br)c1` gave an MIC of 0.3 µg/mL (Cryptococcus neoformans; compound alone, added: tunicamycin).
The MIC of `CC[C@H](C)C[C@H](C)CCCCCCCCC(=O)N[C@H]1C[C@@H](O)[C@@H](NCCN)NC(=O)[C@@H]2[C@@H](O)CCN2C(=O)[C@H]([C@H](O)CCN)NC(=O)[C@H]([C@H](O)[C@@H](O)c2ccc(O)cc2)NC(=O)[C@@H]2C[C@@H](O)CN2C(=O)[C@H]([C@@H](C)O)NC1=O` is reported as 0.125 µg/mL (Candida glabrata; EUCAST broth microdilution; clinical isolate, RPMI 1640 MOPS-buffered 2% glucose; 48 h, pH 7.0, 24 °C).
`CC(C)C[C@H](NC(=O)[C@H](CCCCN)NC(=O)[C@H](CO)NC(=O)[C@H](CC(C)C)NC(=O)[C@H](CC(C)C)NC(=O)CNC(=O)[C@H](CC(C)C)NC(=O)[C@H](CCCCN)NC(=O)[C@H](CC(C)C)NC(=O)[C@H](CC(C)C)NC(=O)[C@H](CC(C)C)NC(=O)CNC(=O)[C@H](CO)NC(=O)[C@H](Cc1c[nH]c2ccccc12)NC(=O)[C@@H](N)CCCCN)C(N)=O` gave an MIC of > 100 µM (Candida glabrata; broth microdilution; ATCC 2001; 44 h, 37 °C).
For `N=C(N)NCCC[C@H](NC(=O)CN)C(=O)N[C@@H](Cc1c[nH]c2ccccc12)C(=O)N[C@@H](CCCNC(=N)N)C(=O)N[C@@H](Cc1c[nH]c2ccccc12)C(=O)N[C@@H](Cc1c[nH]c2ccccc12)C(=O)N[C@@H](Cc1c[nH]c2ccccc12)C(=O)N[C@@H](CCCNC(=N)N)C(=O)N[C@@H](Cc1c[nH]c2ccccc12)C(=O)N[C@@H](CCCNC(=N)N)C(=O)N[C@@H](Cc1c[nH]c2ccccc12)C(N)=O`, the MIC was 4 µM (Candida albicans; CGMCC 2.209; no added salts).
`NC(=Nc1ccccc1)NC(=O)c1nc(Cl)c(N)nc1N` gave an IC50 of 6.31 µM (Plasmodium falciparum; W2).
With `N=C(N)NCCC[C@H](NC(=O)[C@H](Cc1c[nH]c2ccccc12)NC(=O)[C@H](CCCNC(=N)N)NC(=O)[C@H](Cc1c[nH]c2ccccc12)NC(=O)[C@H](Cc1c[nH]c2ccccc12)NC(=O)[C@H](Cc1c[nH]c2ccccc12)NC(=O)[C@H](CCCNC(=N)N)NC(=O)[C@H](Cc1c[nH]c2ccccc12)NC(=O)[C@@H](N)CCCNC(=N)N)C(N)=O` the MIC was 4 µM (Candida albicans; broth microdilution; CGMCC 2.209, RPMI 1640-MOPS; 48 h, 30 °C, added: FeCl3 4 µM).
`CC(C)C1NC(=O)C(C(=O)NC(C(=O)NC2C(=O)N3C2SC(C)(C)C3C(=O)O)c2ccccc2)=C1O` (stereo not shown) gave an MIC of 200 µg/mL (Escherichia coli; broth microdilution; ATCC 35218, low-level TEM-1; added: clavulanic acid 6 µg/mL).
`CCCCCCCCCCCCCCCC(=O)NS(=O)(=O)Oc1ccc(OC)cc1` has an MIC of 12.5 µg/mL (Streptococcus pneumoniae).
For `CC[C@H](C)[C@@H]1NC(=O)[C@@H]2CCCN2C(=O)[C@H](CC(C)C)NC(=O)[C@H](CC(C)C)NC(=O)CNC(=O)[C@@H](NC(=O)[C@@H](NC(=O)[C@H](CC(=O)O)NC(=O)CNC(=O)[C@@H](NC(=O)[C@H](C)NC(=O)CNC(=O)[C@H](CCCCN)NC(=O)[C@H](CC(C)C)NC(=O)[C@H](CC(C)C)NC(=O)[C@H](CCCCN)NC(=O)CNC(=O)[C@@H](NC(=O)[C@@H](N)CC(C)C)C(C)C)C(C)C)C(C)C)CSSC[C@@H](C(=O)O)NC1=O`, “log2 fold change” read -1.57 (RNA-seq, refers to: Sphk1; mouse, traumatic brain injury model, frontal cortex and hippocampus; dose not given; relative to: TBI alone).
`C[C@H]1CN(c2n[nH]c3nc(N[C@H]4CC[C@H](NS(=O)(=O)CCC(F)(F)F)CC4)ncc23)CCO1` gave a remaining binding of 0.96 (Nuclear pore complex protein Nup160 (Homo sapiens, UniProt Q12769); Kinobeads competition, refers to: NUP160; 0.16 µM, unit not given; relative to: vehicle).
With `CC1(C)SC2C(NC(=O)C(NC(=O)C3=C(O)C(Cc4ccc(O)cc4)NC3=O)c3ccccc3)C(=O)N2C1C(=O)O` (stereo not shown) the MIC was 50 µg/mL (Escherichia coli; broth microdilution; Keio mutant JW0587-1; 18 h, enterobactin-related gene).
For `CC[C@H](C)[C@H](NC(=O)CN)C(=O)NCC(=O)N[C@@H](C)C(=O)N[C@H](C(=O)N[C@@H](CC(C)C)C(=O)N[C@@H](CCCCN)C(=O)N[C@H](C(=O)N[C@@H](CC(C)C)C(=O)N[C@H](C(=O)N[C@H](C(=O)NCC(=O)N[C@@H](CC(C)C)C(=O)N1CCC[C@H]1C(=O)N[C@@H](C)C(=O)N[C@@H](CC(C)C)C(=O)N[C@H](C(=O)N[C@@H](CO)C(=O)N[C@@H](Cc1c[nH]c2ccccc12)C(=O)N[C@H](C(=O)N[C@@H](CCCCN)C(=O)N[C@@H](CCCNC(=N)N)C(=O)N[C@@H](CCCCN)C(=O)N[C@@H](CCCNC(=N)N)C(=O)N[C@@H](CCC(N)=O)C(=O)N[C@@H](CCC(N)=O)C(N)=O)[C@@H](C)CC)[C@@H](C)CC)[C@@H](C)O)[C@@H](C)O)C(C)C)C(C)C`, the MIC was 2 µM (Candida albicans; broth microdilution; alveolar fluid isolate, RPMI 1640-MOPS; 48 h, 30 °C).
For `CCCCCCCCCCCCN(C)C(=O)CP(=O)(O)O`, the MIC was > 200 µg/mL (Streptococcus pneumoniae).

For quick reference, copied from above:
`CC(C)C[C@H](NC(=O)[C@H](CCCCN)NC(=O)[C@H](CO)NC(=O)[C@H](CC(C)C)NC(=O)[C@H](CC(C)C)NC(=O)CNC(=O)[C@H](CC(C)C)NC(=O)[C@H](CCCCN)NC(=O)[C@H](CC(C)C)NC(=O)[C@H](CC(C)C)NC(=O)[C@H](CC(C)C)NC(=O)CNC(=O)[C@H](CO)NC(=O)[C@H](Cc1c[nH]c2ccccc12)NC(=O)[C@@H](N)CCCCN)C(N)=O` gave an MIC of > 100 µM (Candida glabrata; broth microdilution; ATCC 2001; 44 h, 37 °C).
